Results of several laboratories.
Parts stem from different laboratories: compare values within a part only. Positions count from the first letter of the parent shown.

Block 1
Target: ABI1, truncated, D143A, DHFR fusion (Arabidopsis thaliana)
Method: DHFR PCA, deep sequencing
Medium: yeast
Notes: methotrexate growth selection, single substitutions
With: (+)-ABA 0.0091 µM
Relative to: wild-type fitted maximum
Direction: higher = stronger binding
Parent: PYL1, truncated, DHFR fusion (Arabidopsis thaliana); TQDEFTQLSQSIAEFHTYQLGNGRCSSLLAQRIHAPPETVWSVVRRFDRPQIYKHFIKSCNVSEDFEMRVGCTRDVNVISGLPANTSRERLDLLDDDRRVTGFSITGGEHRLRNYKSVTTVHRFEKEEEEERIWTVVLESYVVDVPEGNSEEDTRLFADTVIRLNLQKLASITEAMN; partner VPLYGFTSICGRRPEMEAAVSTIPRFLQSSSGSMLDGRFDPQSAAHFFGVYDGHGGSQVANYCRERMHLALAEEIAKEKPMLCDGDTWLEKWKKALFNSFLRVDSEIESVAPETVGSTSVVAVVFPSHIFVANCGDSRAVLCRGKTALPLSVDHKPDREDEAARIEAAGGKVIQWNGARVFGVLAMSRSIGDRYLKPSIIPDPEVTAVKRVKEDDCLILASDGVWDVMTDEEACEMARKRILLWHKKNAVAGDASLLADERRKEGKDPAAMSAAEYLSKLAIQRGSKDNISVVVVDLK
| Substitution | relative binding score [%] |
| --- | --- |
| L169S | -3.76 |
| E174Y | -2.97 |
| S11G | 0.127 |
| Q51L | -0.914 |
| R98G | -2.15 |
| A158Q | 29.9 |
| E14K | 12 |
| I79D | 3.3 |
| D97S | 21.1 |
| T119E | -3.28 |

Block 2
Target: TAR DNA-binding protein 43, full length, His tag (TARDBP, Homo sapiens, UniProt Q13148, residues 1-414)
Method: RNA Bind-n-Seq
Molecule type: RNA
Medium: in vitro
Tested at: 20 nM
Notes: 6-mer, flanks averaged, single round
With: 150 mM LiCl
Relative to: input library
Direction: higher = stronger binding
| Sequence | 6-mer enrichment (R) |
| --- | --- |
| AGCCUA | 0.859 |
| CGGGCG | 1.06 |
| AGCAAG | 0.903 |
| CGUAUU | 0.942 |
| UGGAGG | 1.24 |
| GAUGCA | 0.929 |
| UUGAAA | 0.928 |
| CUACUA | 0.849 |
| CAUGUU | 1.05 |
| AAGGCC | 0.894 |
| GAUUGC | 0.925 |
| GAAGGG | 1.2 |
| AAUUUG | 1.11 |
| UCCGAU | 0.824 |
| GUGUAC | 1.08 |

Block 3
Target: CCNA1, cyclin fold, Cln2 fusion (human)
Method: yeast growth competition, sequencing
Medium: yeast
Notes: weak parent motif
Relative to: not given
Direction: higher = stronger binding
Parent: RBL1 docking peptide (human); GSAKRRLFGEDPP; partner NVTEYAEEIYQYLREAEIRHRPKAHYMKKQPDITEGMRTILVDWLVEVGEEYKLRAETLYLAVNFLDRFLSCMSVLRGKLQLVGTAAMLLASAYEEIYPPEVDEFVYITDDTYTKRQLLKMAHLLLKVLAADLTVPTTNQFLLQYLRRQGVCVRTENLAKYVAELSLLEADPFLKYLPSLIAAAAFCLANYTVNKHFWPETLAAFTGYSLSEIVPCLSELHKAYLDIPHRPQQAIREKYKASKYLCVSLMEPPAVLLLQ
| Substitution | normalised enrichment score |
| --- | --- |
| GSWKRRLFGEDPP [A3W] | 0.595 |
| GSAKRRLQGEDPP [F8Q] | 0.232 |
| GSAKRRLFGHDPP [E10H] | 0.428 |
| GSAARRLFGEDPP [K4A] | 0.636 |
| GSAKRRLFGEPPP [D11P] | 0.17 |
| GSAKRRLFEEDPP [G9E] | 0.401 |
| GSAKRRLFGGDPP [E10G] | 0.128 |
| GSAKRRAFGEDPP [L7A] | 0.23 |
| GSAKRRLFGELPP [D11L] | 0.732 |
| WSAKRRLFGEDPP [G1W] | 0.486 |
| GSAKRRLKGEDPP [F8K] | 0.594 |
| GSAKRFLFGEDPP [R6F] | 0.333 |
| YSAKRRLFGEDPP [G1Y] | 0.906 |
| TSAKRRLFGEDPP [G1T] | 0.848 |
| GSAKRRLYGEDPP [F8Y] | 0.39 |

Block 4
Substance: PhoQ, residues 284 288 289 292 302 303 GANMMA
Method: Sort-seq
Measured: YFP reporter
Medium: E. coli
Notes: PhoQ-PhoP variant library
With: 10 µM Mg2+
Relative to: high Mg2+ state
Direction: higher = stronger signaling
| target | fold induction |
| --- | --- |
| PhoP, residues 12 14 15 18 19 HHYTI (Escherichia coli, UniProt P23836) | 8.66 |
| PhoP, residues 12 14 15 18 19 AYFRS (Escherichia coli, UniProt P23836) | 3.16 |
| PhoP, residues 12 14 15 18 19 SFCSL (Escherichia coli, UniProt P23836) | 15.9 |

Excerpt of the above (block 2):
| Sequence | 6-mer enrichment (R) |
| --- | --- |
| UUGAAA | 0.928 |
| CUACUA | 0.849 |
| CAUGUU | 1.05 |
| AAGGCC | 0.894 |
| GAUUGC | 0.925 |
| GAAGGG | 1.2 |
